Published values collected from several papers.
“And” joins repeats or separate records; there may be more than shown. Numbers after ± are the reported error.

Compound | test | system | conditions | scale | measurement | result
COc1cccc(Oc2ccccc2NC(=O)CNC(=O)c2cccc3ccccc23)c1 |  | esterase-deficient SCID mice, male | oral, 100 mg/kg/day, 14 days, toxicity study |  | serum albumin | 3 g/dL and 3.1 g/dL
Clc1cc2c(cc1Cl)Oc1c(ccc(Cl)c1Cl)O2 |  | cow whole milk | 2000 nM | baseline: milk fat over skim milk | milk fat partition ratio | 337
CO[C@H]1C[C@@H]2CC[C@@H](C)[C@@](O)(O2)C(=O)C(=O)N2CCCC[C@H]2C(=O)O[C@H]([C@H](C)C[C@@H]2CC[C@@H](OC(=O)NCCOCCOCCOCCOCCOCCOCCOCCOCCC(=O)N3CCc4cc(Cn5nc(-c6ccc7oc(N)nc7c6)c6c(N)ncnc65)ccc4C3)[C@H](OC)C2)C[C@@H](O)[C@H](C)/C=C(\C)[C@@H](O)[C@@H](OC)C(=O)[C@H](C)C[C@H](C)/C=C/C=C/C=C/1C | phase 1 dose escalation | advanced solid tumour patients | intravenous, 10 mg weekly, any grade |  | deaths due to TEAEs | 0%
CC(C)[C@@H]1NC(=O)CNC(=O)[C@H](CC(N)=O)NC(=O)[C@H](CCCNC(=N)N)NC(=O)[C@H](Cc2ccc(O)cc2)NC(=O)[C@H](C(C)C)NC(=O)[C@@H](NC(=O)[C@@H](NC(=O)[C@H](CC(N)=O)NC(=O)[C@H](Cc2c[nH]c3ccccc23)NC(=O)[C@H](C)NC(=O)[C@H](Cc2ccccc2)NC(=O)CN)C(C)C)CSSC[C@@H](C(=O)N[C@@H](Cc2c[nH]cn2)C(=O)N[C@@H](CCCNC(=N)N)C(=O)N[C@@H](CCCNC(=N)N)C(=O)N[C@@H](C)C(=O)N[C@@H](CC(N)=O)C(N)=O)NC(=O)[C@H](C(C)C)NC(=O)[C@H](CCCNC(=N)N)NC1=O | circular dichroism, measured: α-Helix | PBS | 80 µM, pH 7.4, added: LTA 1 µM |  | secondary structure content | 5.88%
CCCC[C@@H]1NC(=O)[C@H](Cc2ccc(O)cc2)NC(=O)[C@@H]2CCCN2C(=O)[C@H](CC(=O)O)NC(=O)[C@H](C)NC(=O)[C@H](Cc2ccccc2)NC(=O)[C@@H]2CSCCC(=O)N3CN(CN(C3)C(=O)CCSC[C@@H](C(N)=O)NC1=O)C(=O)CCSCCC(=O)N[C@@H](CC(C)(C)C)C(=O)N1CCC[C@H]1C(=O)N[C@@H](CCC(=O)O)C(=O)N[C@H](CCCCNC(=O)CCc1cn(CCOCCOCCOCCN(CCOCCOCCOCCC(=O)N[C@H]3CSCCC(=O)N4CN5CN(C4)C(=O)CCSC[C@H](NC(=O)[C@@H](CC(=O)O)NC(=O)[C@H](Cc4cccc6ccccc46)NC(=O)[C@@H]4CCCN4C3=O)C(=O)N[C@@H](CCSC)C(=O)N[C@@H](CCCCNC(=N)N)C(=O)N[C@@H](CC(=O)O)C(=O)N[C@@H](Cc3c[nH]c4ccccc34)C(=O)N[C@@H](CO)C(=O)N[C@@H]([C@@H](C)O)C(=O)N3CCC[C@H]3C(=O)N3C[C@H](O)C[C@H]3C(=O)N[C@@H](Cc3c[nH]c4ccccc34)C(=O)N[C@H](C(N)=O)CSCCC5=O)CCOCCOCCOCCn3cc(CCC(=O)NCCCC[C@H]4NC(=O)[C@H](CCC(=O)O)NC(=O)[C@@H]5CCCN5C(=O)[C@H](CC(C)(C)C)NC(=O)CCSCCC(=O)N5CN6CN(C5)C(=O)CCSC[C@H](NC(=O)[C@H](Cc5ccc(O)cc5)NC(=O)[C@@H]5CCCN5C4=O)C(=O)N[C@@H](Cc4ccccc4)C(=O)N[C@@H](C)C(=O)N[C@@H](CC(=O)O)C(=O)N4CCC[C@H]4C(=O)N[C@@H](Cc4ccc(O)cc4)C(=O)N[C@@H](CCCC)C(=O)N[C@H](C(N)=O)CSCCC6=O)nn3)nn1)C(=O)N1CCC[C@H]1C(=O)N[C@@H](Cc1ccc(O)cc1)C(=O)N2 |  | Sprague-Dawley rat |  |  | unbound Vdss | 54 L/kg
COc1cc2c(Oc3ccc4[nH]c(C)cc4c3F)ccnc2cc1OCC1(N)CC1 |  | paediatric recurrent refractory sarcoma | 8 mg |  | grade 3 Appendicitis | 0%
O=C(O)CCCOc1ccc(F)cc1-c1cc(-c2ccccc2C(F)(F)F)n(-c2ccccc2)n1 | measured: Glu | Crl:CD(SD) rats, male, blood | iv, 25 µg/kg, 14 days |  | blood chemistry | 135 ± 24.4 mg/dL
C1=Cc2nc1cc1ccc([n-]1)c(-c1ccccc1)c1nc(cc3ccc([n-]3)c2-c2ccccc2)C=C1.CC(=O)[O-].[Mn+3] | LC-MS/MS | Sprague-Dawley rat, plasma | oral gavage, dose not given, 120 min, individual rat Rat2 |  | plasma concentration | 27 ng/mL
Cn1ncc(-c2nc(N[C@H]3CC[C@H](N)CC3)ncc2Cl)c1CC1CC1 | HPLC-MS/MS | patients, plasma | oral, 5 mg, day 5 |  | Cmax | 25.7 ng/mL
CC1(C)[C@H](C(=O)OCc2cccc(Oc3ccccc3)c2)[C@@H]1C=C(Cl)Cl | measured: CYP3A5 | human, age 5 years, recombinant human CYP3A5 | 0.1 µM |  | enzyme contribution to clearance | 0.13%
C[C@]1(CO)Cc2ncn(-c3ccc(C#N)c(Cl)c3)c2C(=O)O1 |  | human, Chinese, plasma | 3 mg single dose, median |  | tmax | 1 h
CC(=O)c1c(C)c2cnc(Nc3ccc(C4CCN(CCS(C)(=O)=O)CC4)cn3)nc2n(C2CCCC2)c1=O |  | human, plasma | oral, 50 mg twice daily, day 21, multiple doses, added: letrozole |  | AUC(0-inf) | 593 ng·h/mL
C[C@]1(O)C[C@@](N)(c2ccc(-c3nc4n(c3-c3ccccc3)COc3ccncc3-4)cc2)C1 |  | human, advanced or metastatic solid tumours | 16 mg once daily, dose-ranging cohort |  | patients with grade ≥3 TEAE | 100%
CN1CC[C@@H](c2c(O)cc(O)c3c(=O)cc(-c4ccc(C(F)(F)F)cc4Cl)oc23)[C@@H]1CO | measured: urinary incontinence | B-cell malignancies | oral, 100 mg, grade 3 to 4, intermittent dosing |  | patients with adverse event | 0%

Some of these lines once more:
Compound | test | system | conditions | scale | measurement | result
C[C@]1(CO)Cc2ncn(-c3ccc(C#N)c(Cl)c3)c2C(=O)O1 |  | human, Chinese, plasma | 3 mg single dose, median |  | tmax | 1 h
CC(=O)c1c(C)c2cnc(Nc3ccc(C4CCN(CCS(C)(=O)=O)CC4)cn3)nc2n(C2CCCC2)c1=O |  | human, plasma | oral, 50 mg twice daily, day 21, multiple doses, added: letrozole |  | AUC(0-inf) | 593 ng·h/mL
